# Measurements from different studies.
# Numbered parts are unrelated; each lists some results of a single study. Positions count from the first letter of the parent shown.

# Study 1
# Target: RING finger protein unkempt homolog, zinc fingers 1-6, SBP tag (UNK, Homo sapiens, UniProt Q9C0B0, residues 30-357)
# Sequence of UniProt Q9C0B0 (30-357, looked up): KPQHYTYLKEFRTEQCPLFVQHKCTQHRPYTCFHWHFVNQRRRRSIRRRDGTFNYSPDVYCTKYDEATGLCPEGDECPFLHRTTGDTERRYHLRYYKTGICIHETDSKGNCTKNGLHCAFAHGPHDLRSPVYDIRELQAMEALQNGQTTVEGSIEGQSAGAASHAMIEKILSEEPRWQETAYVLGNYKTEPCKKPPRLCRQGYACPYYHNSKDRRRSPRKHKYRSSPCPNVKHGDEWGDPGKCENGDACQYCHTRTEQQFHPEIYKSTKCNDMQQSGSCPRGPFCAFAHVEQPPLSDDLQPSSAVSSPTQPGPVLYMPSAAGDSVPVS
# Technique: RNA Bind-n-Seq
# Molecule type: RNA
# Matrix: in vitro
# Concentration: 100 nM
# Notes: RNA with constant flanks, vertebrate orthologous sites, ends assumed
# Reference: input RNA pool
# Direction: higher = stronger binding
Oligonucleotide,bound/input enrichment [ratio]
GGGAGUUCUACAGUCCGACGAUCAGUCAAUGGAAUUACAUAAUACUGAAGUUGCAGUUGAAAGGGUAUCCCAGUAUGUGUUGAUAGUUACUGAAGGAAUUAGAGCUGGUGUUGCCUUGUAUUUUAGCCCUUGUUUCAGGUUUUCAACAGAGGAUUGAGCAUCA,0.398
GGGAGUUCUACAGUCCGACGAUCUCCAGCCUCAACUGACUGUUUCACAGCAUUCCUUACACAGCUAUUUAACAAGUACAAGUGGAGUUAACUUUCAGGAUACAUCUAGGCACUCAGCGUUAUCCUGCAGUCCAGUUGGAGAUGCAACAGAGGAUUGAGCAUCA,0.218
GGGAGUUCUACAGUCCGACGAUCUCAGUCCCCUGGGCCGGGACGGAUUUUUUUUAACGUCUCGAAACUUAAACUCUGUGCUUGUAGGAUACUGUAACCUUUUUGUCUUUUUUUUUUUUUUUUUUUUUUUUUUUUAAAAAAAAACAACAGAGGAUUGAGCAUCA,1.49
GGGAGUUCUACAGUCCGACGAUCUCAUAAUCACUAAUUGUAAUCUGAAGAAAGUGUAACAUUGUGUAGCCUUUUUGUAUAAAAUAGACAAAUAGAAAUGGUCCAAUUAGUUUCCUUUUUAAUAUGCUGAAAAUAAGCAGGAAGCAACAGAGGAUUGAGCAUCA,0.832
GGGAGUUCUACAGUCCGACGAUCGACGCUUUGAUGUAAAAUUUGAAAUAAAGAGCAGCUGAUCACAAGCACAAUUUCCCCCCUAGCCAUUUAAAAAAGUUAAAAAUAUAAAAAACAAAAAACUACUAGUCUUGAACAAACUGUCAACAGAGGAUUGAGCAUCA,2.62
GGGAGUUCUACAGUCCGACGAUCCAACUCCAUGGUGGAGGGCUCAGAGCUCAAAAAGCUUCGCUCCAACUCCAGAAUUUACCACCGGUAUUUUCUGCUGGACGCUGACAUGCAGAGCCUGAGGUGGGAACCAUCUAAGAAGGACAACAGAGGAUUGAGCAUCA,0.15
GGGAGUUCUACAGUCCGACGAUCUUAAGGUUUUUUUUUUUUAAUUUAAUUUUUCCUUUUGGGGGUAAAGUUUGCUCUACCAAAUAGUGAUUGUAACAAAUUUUGAUCUGUUUUGGAUGUUGCUAUAGUGACAUGCAGUUAUAUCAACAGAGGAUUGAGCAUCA,0.739
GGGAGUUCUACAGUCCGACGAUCGGUCAUUUAUAGCAAUUAGAGCGGGUUGCCCCUCUACUUCUCCCAAGAAGAAAUCCCAAACAGAUUCCUUUCAUGUCGGAUUAUACUGUUCUGAUUUUAUUUUCUAUUUUUACAUAUACACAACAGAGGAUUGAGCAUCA,0.793
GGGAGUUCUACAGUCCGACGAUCAAUAGUUUUAAGCUUGUUUGCACAGUCUUUUUUUUCCAUUGGAGAUGGAAUUCAUUGCCUUAGGUCUUUUUAAUAGUGUAUUGUUAUUGUUGGGCUGGCUCUAUGCUUGAAAACCAGUUUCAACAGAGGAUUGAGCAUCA,2.17
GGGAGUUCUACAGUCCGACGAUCCGCUGUCGGACUGCAGGACACCAGGCCCUGUCCGCCGCUCACUGUCCCUCCACACUGAAUCUAGUUACAGGAAUUUAAUAUUUUUGAAAGUUUUACAUUGCUGUAUAUUCAAAGAUUUGUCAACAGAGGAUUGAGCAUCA,0.574
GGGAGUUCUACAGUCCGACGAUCGCUUCUGUGUAGCUAUUAGAGCAGGGUCUUCCUCUCCUCCCAGGAAGAAAAAUGUGCAUUUAGAUUCCUCAUACAUUUGCUUGUAUGGCUCUGUUUUUGUUUUCUAUUUUUACAUUUCCUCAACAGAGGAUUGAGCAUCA,0.579

# Study 2
# Target: ABI1, truncated, D143A, DHFR fusion (Arabidopsis thaliana)
# Technique: DHFR PCA, deep sequencing
# Matrix: yeast
# Notes: methotrexate growth selection, single substitutions
# Together with: (+)-ABA 0.11 µM
# Reference: wild-type fitted maximum
# Direction: higher = stronger binding
# Parent: PYL1, truncated, DHFR fusion (Arabidopsis thaliana); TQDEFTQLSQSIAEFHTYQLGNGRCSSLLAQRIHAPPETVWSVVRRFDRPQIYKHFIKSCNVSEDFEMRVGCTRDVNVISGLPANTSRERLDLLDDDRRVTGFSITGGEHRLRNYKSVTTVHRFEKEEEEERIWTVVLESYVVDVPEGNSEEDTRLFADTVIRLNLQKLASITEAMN; partner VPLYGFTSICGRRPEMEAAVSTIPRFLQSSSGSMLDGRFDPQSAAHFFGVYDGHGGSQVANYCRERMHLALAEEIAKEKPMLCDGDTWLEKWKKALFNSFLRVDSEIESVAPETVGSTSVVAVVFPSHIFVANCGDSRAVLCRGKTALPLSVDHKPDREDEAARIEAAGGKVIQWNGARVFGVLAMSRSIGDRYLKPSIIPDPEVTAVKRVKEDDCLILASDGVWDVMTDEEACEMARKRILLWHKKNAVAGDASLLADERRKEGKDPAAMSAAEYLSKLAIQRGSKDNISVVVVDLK
Variant,relative binding score [%]
V145Y,-11.1
I162M,11.2
R98N,19.3
R45F,-0.875
E151R,23.3
S140H,8.2
V143F,-7.12
R45A,-4.96
A84Q,24.9
R32H,17.7
T135W,-4.7
L164W,12.6
R111Q,2.47
V43T,-1.69
T154F,-15.6
M68H,3.82
R98Q,13.5
T120F,-9.44
N61F,26.1
F66V,0.64
Y141H,10.9

# Study 3
# Target: RNA binding protein fox-1 homolog 2, RRM domain, GST-SBP tag (RBFOX2, Homo sapiens, UniProt O43251-10, residues 100-194)
# Technique: RNA Bind-n-Seq
# Molecule type: RNA
# Matrix: in vitro
# Concentration: 365 nM
# Notes: natural RNA segment, single round, ends assumed
# Reference: no-protein control
# Direction: higher = stronger binding
# Target sequence (chain): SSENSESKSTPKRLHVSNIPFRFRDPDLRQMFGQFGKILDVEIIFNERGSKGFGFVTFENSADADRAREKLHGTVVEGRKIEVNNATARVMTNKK
Oligonucleotide,RBNS enrichment (R)
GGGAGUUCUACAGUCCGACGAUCAUUUUUAUAUUUUUCAAUGCACUUAAUUAUUGUUUUUAUAUAAUUAUUUGUACUAACUCAGCAUGUAACAACCAAUUUACAUAGAAAUAAAUUGAAAUAUGUUAACUACAUGGAAUUCUCGGGUGCCAA,1.1
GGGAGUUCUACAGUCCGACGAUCGAGAAAAAAACACACAUCAAUUAAAGGAGACAAAAAGAGGCAGAGCGAGUAGAGAGCAGCCCUCAUUCACCACCUGGUCCCAGACGUGCUUCAGUCCUCGUCCUCUCUUUUGGAAUUCUCGGGUGCCAA,0.37
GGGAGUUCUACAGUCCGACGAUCAGUUAGGGCCUCUGCAGCUUAUGGUGGCUUAAAAUGGAGAGAGCAUCUUGCCUGGCCGAGUGUUUGUGCUAUGUGAGCAUGAGGCUUUAUUUGACUGUGGAAGAAGACACUGGAAUUCUCGGGUGCCAA,1.1
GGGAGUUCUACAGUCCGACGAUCCAAUAUGAGUAAAAUCUGUCCCUUUUUCCCCCUUUGAAUGAGGUCUUCCAUGUUUGAGGGAAAGUCUUGCACUAUUGCAUAUAUUUUGGGGACACAGAUUUUCAUAGUUUUGGAAUUCUCGGGUGCCAA,0.587
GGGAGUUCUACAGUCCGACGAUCAGAGGAAACAGAGCUAGUCAGAUGUGAAUUGUAUCUGUUGUAAUAAACAUGUUAAAACAAACAAAAAUUGUUAUUUUUCUUUUCCUUCGGUCAGUGCACAUUAGCAUUUGUGGAAUUCUCGGGUGCCAA,0.562
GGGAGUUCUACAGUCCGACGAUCAAGCAUAUGUGCAUGCGUGCGUGUGUAUAUAAAUGCCUUUUCCAUAUCUUAAAUGUCCCUGAUGAGGAGAGCAGUCAUCAAUUAAAUAUAUAAGCUCUUAAAAUGAGAAUUGGAAUUCUCGGGUGCCAA,0.98
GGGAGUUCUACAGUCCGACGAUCAUAGGGUGAUGUUCCGAAGGUGAGGAGCUUGAAACCCGUGGCGCUUUCUGCAGUUUGCAGGUUAUCAUUGUGAACUUUUUUUUUUUAAGAGUAAAAAGAAAUAUACCUAAUGGAAUUCUCGGGUGCCAA,1.6
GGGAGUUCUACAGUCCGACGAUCUUACUGUGUAUCAGUUCUUUGUUAGGCAUGAACGUCUUUAUUAAUCCAUCAUUCUUUUCUUCAUUCAACAAAUAUGUAUUGAACACCUCCUAUAUGCCAGGCACUGUGCUUGGAAUUCUCGGGUGCCAA,1.47
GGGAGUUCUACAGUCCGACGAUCUUAGGGUUUCCCUGCCCACUCUGCAGGAGCAGAUGUUGGACAGGUAGCCAGUGGGAUGCCACUGCUUGCCACCACCUGUCCCCAGGCUUAGGUUUAGGGGAUGCGUAUACUGGAAUUCUCGGGUGCCAA,0.215
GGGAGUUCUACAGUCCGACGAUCGGCCAGGGCUGCGGGGCUGGCGCAAUCCCAGCCCCCUUCCCCGGGCCACGGGGCCUUGGGUCCCUGCCCUCCCACCCAGGUUUGGUUCCUCCCGGGGCCCCCACUGUGGAUGGAAUUCUCGGGUGCCAA,0.185
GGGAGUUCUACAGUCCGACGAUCAGCUUUUUGUGCGUCUGUGAAAUGUUUUACAGUGUUUCUCAUCAUCUGUUUCCCAGCAAGGUCUUUUUUUUUUCUACAUUGAAGUUCUGUCUAUGUAUCUUAAUCACAAAUGGAAUUCUCGGGUGCCAA,1.01
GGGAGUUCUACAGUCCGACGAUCUGUCCAGUGCUGGGUGUUUGGGUGCUUCUGUACCAGCCGUCCCCAAGCAGGGCUAAGGCACCUUGAACUAGCCAGAUGCAAACAUAGAUUCACUGUGCUUUCCUUUCAAAUGGAAUUCUCGGGUGCCAA,0.311

# Study 4
# Target: CREB3, bZIP domain (human)
# Technique: DHFR protein complementation
# Matrix: yeast
# Notes: single substitutions, most at no-binding floor
# Reference: wild-type JUN-FOS pair
# Direction: higher = stronger binding
# Parent: JUN, bZIP domain (human); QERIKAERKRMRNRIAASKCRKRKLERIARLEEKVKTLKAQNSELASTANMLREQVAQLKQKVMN; partner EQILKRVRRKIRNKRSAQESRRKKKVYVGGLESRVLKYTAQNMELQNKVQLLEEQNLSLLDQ
Variant,binding fitness [natural log]
M51R,-1.32
A57I,-1.43
V35W,-1.44
L31D,-1.41
K39A,-1.44
V35N,-1.62
S43R,-1.39
A29N,-1.42
L31E,-1.31
S43A,-1.33
N42I,-1.42
R53W,-1.44
K36P,-1.52
A49G,-1.43
E44D,-1.35
S47E,-1.29
I28D,-1.34
A46F,-1.37
E32M,-1.14
A40M,-1.52
S47Q,-1.21
N42D,-1.52
E32H,-1.55
L52Q,-1.41
Q41N,-1.31

# Study 5
# Target: CCNB3, cyclin fold, Cln2 fusion (human)
# Technique: yeast growth competition, sequencing
# Matrix: yeast
# Notes: weak parent motif
# Reference: not given
# Direction: higher = stronger binding
# Parent: CDC25A docking peptide (human); PPHRRRLLFACSP
Variant,normalised enrichment score
PPHRRRLLFACNP [S12N],0.549
PPHRRRLLFAGSP [C11G],0.0828
PVHRRRLLFACSP [P2V],-0.133
IPHRRRLLFACSP [P1I],0.364
PPHRRSLLFACSP [R6S],0.189
PPHGRRLLFACSP [R4G],0.447
PPHRRRGLFACSP [L7G],0.198
PCHRRRLLFACSP [P2C],0.472
PPHRRRLLFACVP [S12V],0.423
PPHRAAAAFACSP [R5A R6A L7A L8A],0.222
PPHRFRLLFACSP [R5F],0.307
PPHRQRLLFACSP [R5Q],0.412
PGHRRRLLFACSP [P2G],0.26
PPHRRRLLFAASP [C11A],0.522
PPHVRRLLFACSP [R4V],1.21
PPSRRRLLFACSP [H3S],0.38
PPHRRRLLIACSP [F9I],0.228
PPHRRRLNFACSP [L8N],0.288
PPVRRRLLFACSP [H3V],1.16
PPHRRRLLFACAP [S12A],0.21
PPHRRRLLFALSP [C11L],0.335
PPHRRRLLFACSA [P13A],0.34
PPHRRRLDFACSP [L8D],0.544
PPHRRRLRFACSP [L8R],0.112
PPHRRRLLTACSP [F9T],0.356

# Some of these lines once more (study 5):
Variant,normalised enrichment score
PPHRRRLLFAASP [C11A],0.522
PPHVRRLLFACSP [R4V],1.21
PPSRRRLLFACSP [H3S],0.38
PPHRRRLLIACSP [F9I],0.228
PPHRRRLNFACSP [L8N],0.288
PPVRRRLLFACSP [H3V],1.16
PPHRRRLLFACAP [S12A],0.21
PPHRRRLLFALSP [C11L],0.335
PPHRRRLLFACSA [P13A],0.34
PPHRRRLDFACSP [L8D],0.544
PPHRRRLRFACSP [L8R],0.112
